Assay results from different studies.
Every numbered part comes from another study and shows a few of its results, in no order.
UniProt Q15418, sequence (whole entry, looked up): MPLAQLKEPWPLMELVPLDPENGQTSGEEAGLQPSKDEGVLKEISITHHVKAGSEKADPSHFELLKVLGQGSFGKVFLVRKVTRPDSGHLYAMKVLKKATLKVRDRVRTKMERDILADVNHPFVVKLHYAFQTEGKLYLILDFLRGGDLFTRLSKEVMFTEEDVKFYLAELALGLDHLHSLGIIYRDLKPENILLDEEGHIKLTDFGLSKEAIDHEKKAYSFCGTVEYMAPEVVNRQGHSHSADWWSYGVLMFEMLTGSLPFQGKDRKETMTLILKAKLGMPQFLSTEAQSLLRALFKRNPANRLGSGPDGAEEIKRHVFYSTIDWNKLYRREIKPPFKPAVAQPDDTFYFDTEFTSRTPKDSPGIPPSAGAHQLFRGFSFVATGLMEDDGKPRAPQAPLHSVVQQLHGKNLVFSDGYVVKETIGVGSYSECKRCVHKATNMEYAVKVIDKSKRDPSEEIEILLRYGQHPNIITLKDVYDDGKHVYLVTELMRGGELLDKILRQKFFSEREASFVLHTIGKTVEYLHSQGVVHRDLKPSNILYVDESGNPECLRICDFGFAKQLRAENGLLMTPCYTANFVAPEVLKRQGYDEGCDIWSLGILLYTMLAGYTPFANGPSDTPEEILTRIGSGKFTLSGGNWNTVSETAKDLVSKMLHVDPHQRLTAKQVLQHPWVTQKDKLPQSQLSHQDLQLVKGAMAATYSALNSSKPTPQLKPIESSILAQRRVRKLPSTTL
UniProt Q12866, sequence (whole entry, looked up): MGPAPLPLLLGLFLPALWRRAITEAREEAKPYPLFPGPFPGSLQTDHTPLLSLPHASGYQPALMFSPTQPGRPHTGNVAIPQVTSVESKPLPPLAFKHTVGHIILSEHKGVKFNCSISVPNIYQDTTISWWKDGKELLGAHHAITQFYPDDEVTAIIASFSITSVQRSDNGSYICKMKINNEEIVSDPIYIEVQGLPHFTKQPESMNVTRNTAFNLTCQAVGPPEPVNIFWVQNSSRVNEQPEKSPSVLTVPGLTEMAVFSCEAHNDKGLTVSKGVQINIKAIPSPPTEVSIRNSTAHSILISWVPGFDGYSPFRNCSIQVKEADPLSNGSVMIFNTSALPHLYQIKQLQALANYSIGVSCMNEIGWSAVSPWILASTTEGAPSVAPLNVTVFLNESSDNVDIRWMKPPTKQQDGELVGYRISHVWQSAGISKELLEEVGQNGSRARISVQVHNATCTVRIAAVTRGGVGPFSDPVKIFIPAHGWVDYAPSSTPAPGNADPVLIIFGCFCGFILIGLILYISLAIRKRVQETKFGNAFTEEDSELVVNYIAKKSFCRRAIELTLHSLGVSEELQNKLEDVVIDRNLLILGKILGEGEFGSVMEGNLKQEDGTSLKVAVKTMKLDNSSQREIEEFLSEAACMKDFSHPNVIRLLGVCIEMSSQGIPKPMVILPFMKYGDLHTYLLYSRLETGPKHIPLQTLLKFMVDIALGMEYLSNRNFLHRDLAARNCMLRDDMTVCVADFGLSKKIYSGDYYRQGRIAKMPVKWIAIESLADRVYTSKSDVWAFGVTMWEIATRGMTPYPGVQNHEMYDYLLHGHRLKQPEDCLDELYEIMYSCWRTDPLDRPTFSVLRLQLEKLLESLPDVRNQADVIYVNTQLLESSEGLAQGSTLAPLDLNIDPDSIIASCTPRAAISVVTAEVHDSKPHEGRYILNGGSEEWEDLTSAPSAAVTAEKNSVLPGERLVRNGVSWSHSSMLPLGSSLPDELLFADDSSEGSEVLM
UniProt Q02763, sequence (whole entry, looked up): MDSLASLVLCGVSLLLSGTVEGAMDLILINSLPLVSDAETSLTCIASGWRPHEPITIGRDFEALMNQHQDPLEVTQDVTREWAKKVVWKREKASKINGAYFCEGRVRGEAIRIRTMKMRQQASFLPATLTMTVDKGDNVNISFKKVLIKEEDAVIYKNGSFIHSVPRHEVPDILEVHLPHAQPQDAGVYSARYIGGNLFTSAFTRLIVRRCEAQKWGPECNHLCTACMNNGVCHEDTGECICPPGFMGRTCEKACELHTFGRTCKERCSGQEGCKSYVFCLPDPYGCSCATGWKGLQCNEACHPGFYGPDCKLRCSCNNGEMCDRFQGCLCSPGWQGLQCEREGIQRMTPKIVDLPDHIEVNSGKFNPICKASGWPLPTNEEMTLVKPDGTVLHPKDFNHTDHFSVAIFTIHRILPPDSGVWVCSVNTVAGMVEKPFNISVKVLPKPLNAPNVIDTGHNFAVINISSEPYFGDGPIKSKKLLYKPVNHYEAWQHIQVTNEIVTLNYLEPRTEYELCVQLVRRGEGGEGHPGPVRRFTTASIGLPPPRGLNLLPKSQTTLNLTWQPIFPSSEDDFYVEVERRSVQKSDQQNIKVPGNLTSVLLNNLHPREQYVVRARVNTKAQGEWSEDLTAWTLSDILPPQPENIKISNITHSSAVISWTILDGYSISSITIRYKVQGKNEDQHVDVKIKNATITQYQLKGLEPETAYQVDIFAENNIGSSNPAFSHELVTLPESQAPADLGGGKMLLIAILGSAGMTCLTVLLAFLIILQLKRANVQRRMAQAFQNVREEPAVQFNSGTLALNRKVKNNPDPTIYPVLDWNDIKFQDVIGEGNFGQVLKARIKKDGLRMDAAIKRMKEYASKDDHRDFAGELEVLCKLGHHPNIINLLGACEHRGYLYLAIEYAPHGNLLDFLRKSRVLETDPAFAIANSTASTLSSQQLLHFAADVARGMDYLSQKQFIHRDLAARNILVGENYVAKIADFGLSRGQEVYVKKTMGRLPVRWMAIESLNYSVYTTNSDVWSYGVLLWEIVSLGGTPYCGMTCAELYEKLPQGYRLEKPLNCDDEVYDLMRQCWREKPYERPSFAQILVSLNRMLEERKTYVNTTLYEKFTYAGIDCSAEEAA
UniProt P49841, sequence (whole entry, looked up): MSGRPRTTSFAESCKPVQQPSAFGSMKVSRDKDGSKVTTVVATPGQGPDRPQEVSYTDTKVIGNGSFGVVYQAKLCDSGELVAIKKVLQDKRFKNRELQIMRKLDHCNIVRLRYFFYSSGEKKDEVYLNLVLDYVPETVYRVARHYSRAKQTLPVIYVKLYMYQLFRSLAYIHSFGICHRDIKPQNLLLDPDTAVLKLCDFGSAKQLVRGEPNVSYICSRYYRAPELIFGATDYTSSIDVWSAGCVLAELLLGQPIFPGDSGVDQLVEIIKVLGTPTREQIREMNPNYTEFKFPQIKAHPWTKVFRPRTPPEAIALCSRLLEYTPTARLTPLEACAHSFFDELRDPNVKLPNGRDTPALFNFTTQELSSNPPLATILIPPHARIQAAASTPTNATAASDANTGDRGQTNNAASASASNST
UniProt Q8WXR4, sequence (whole entry, looked up): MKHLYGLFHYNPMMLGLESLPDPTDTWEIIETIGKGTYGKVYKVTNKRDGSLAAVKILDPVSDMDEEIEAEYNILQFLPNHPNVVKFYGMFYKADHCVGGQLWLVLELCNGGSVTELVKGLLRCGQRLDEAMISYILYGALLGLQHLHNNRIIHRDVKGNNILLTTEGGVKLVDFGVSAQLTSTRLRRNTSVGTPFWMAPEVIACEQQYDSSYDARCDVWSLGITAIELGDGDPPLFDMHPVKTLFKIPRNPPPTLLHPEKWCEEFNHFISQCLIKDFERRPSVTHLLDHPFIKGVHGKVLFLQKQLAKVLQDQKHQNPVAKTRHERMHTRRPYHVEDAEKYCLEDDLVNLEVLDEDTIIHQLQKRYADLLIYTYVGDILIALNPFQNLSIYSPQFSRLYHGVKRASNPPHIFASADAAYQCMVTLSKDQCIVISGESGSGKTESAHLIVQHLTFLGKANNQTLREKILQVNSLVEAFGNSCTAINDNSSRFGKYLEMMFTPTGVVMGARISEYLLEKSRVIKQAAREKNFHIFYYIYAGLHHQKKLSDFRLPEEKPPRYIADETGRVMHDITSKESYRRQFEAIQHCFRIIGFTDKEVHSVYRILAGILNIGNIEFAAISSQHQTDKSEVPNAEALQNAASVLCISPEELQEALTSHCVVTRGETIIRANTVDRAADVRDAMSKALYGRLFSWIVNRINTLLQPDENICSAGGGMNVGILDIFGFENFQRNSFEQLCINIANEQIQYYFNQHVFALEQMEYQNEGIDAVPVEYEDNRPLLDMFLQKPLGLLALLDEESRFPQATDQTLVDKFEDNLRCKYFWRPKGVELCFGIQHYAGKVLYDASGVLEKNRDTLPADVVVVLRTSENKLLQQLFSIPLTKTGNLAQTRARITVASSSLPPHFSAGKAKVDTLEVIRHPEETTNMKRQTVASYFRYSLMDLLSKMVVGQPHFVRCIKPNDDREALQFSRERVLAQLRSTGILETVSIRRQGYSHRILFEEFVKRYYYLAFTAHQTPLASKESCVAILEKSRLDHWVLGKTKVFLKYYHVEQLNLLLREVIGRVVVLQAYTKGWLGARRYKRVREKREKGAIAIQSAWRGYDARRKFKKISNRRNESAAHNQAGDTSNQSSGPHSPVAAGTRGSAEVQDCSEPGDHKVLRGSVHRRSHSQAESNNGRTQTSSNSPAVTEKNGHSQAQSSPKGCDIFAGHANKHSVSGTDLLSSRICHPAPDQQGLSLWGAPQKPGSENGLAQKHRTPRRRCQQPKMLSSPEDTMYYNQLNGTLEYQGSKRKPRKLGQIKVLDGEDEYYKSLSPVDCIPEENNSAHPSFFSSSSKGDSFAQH
UniProt Q9HC98, sequence (whole entry, looked up): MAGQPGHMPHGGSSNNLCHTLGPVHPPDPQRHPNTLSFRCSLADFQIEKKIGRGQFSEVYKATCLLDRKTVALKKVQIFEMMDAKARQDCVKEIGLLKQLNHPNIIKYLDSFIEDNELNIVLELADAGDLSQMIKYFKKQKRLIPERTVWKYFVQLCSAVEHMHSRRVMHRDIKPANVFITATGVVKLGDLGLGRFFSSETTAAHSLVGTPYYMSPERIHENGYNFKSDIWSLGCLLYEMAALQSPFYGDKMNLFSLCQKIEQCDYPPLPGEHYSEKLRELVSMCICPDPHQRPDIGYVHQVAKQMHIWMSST

Series 1
Structure (SMILES): CN(C(=O)c1ccccc1)c1cc(N(C)c2ccc3c(c2)CCc2ccc(C(=O)NCCN4CCOCC4)cc2C3=O)ccc1F
Effect on: cell-free assay
Method: competition with immobilised ligand
Concentration: 1 µM
For GRK3 (Homo sapiens, UniProt P35626): remaining binding read 100%.
The remaining binding was 80% (FGFR3 (Homo sapiens, UniProt P22607, G697C)).
PRKCH (Homo sapiens, UniProt P24723) — remaining binding: 95%.
ULK3 (Homo sapiens, UniProt Q6PHR2) — remaining binding: 100%.
For Myosin-IIIb (MYO3B, Homo sapiens, UniProt Q8WXR4): remaining binding read 87%.
It gave 100% for remaining binding (Ribosomal protein S6 kinase alpha-1, C-terminal kinase domain (RPS6KA1, Homo sapiens, UniProt Q15418)).
Ribosomal protein S6 kinase alpha-5, N-terminal kinase domain (RPS6KA5, Homo sapiens, UniProt O75582) — remaining binding: 99%.
Ribosomal protein S6 kinase alpha-1, N-terminal kinase domain (RPS6KA1, Homo sapiens, UniProt Q15418) — remaining binding: 87%.
For HUNK (Homo sapiens, UniProt P57058): remaining binding read 100%.
MAPK12 (Homo sapiens, UniProt P53778) — remaining binding: 100%.

Series 2
Structure (SMILES): O=C1NC(=O)/C(=C/c2ccc3nccnc3c2)S1
Effect on: enzyme activity
Mode: inhibitor
Concentration: 0.5 µM
Reference: control
FGFR1 (Homo sapiens, UniProt P11362) — remaining activity: 88.5%.
For MERTK (Homo sapiens, UniProt Q12866): remaining activity read 92.2%.
RPS6KA2 (Homo sapiens, UniProt Q15349) — remaining activity: 85.4%.
The remaining activity was 91.7% (FRK (Homo sapiens, UniProt P42685)).
It gave 97.8% for remaining activity (MST1R (Homo sapiens, UniProt Q04912)).
JAK3 (Homo sapiens, UniProt P52333) — remaining activity: 97.2%.
WEE1 (Homo sapiens, UniProt P30291) — remaining activity: 83.1%.
The remaining activity was 99.8% (GRK7 (Homo sapiens, UniProt Q8WTQ7)).
TEK (Homo sapiens, UniProt Q02763) — remaining activity: 89.5%.
For CSNK1G2 (Homo sapiens, UniProt P78368): remaining activity read 83.4%.
It gave 93.4% for remaining activity (GSK3B (Homo sapiens, UniProt P49841)).
For NEK6 (Homo sapiens, UniProt Q9HC98): remaining activity read 109%.
For EPHA3 (Homo sapiens, UniProt P29320): remaining activity read 97.1%.
It gave 98.6% for remaining activity (LCK (Homo sapiens, UniProt P06239)).

Series 3
Target: RNA binding protein fox-1 homolog 2, RRM domain, GST-SBP tag (RBFOX2, Homo sapiens, UniProt O43251-10, residues 100-194)
Method: RNA Bind-n-Seq
Molecule type: RNA
Matrix: in vitro
Concentration: 365 nM
Notes: natural RNA segment, single round, ends assumed
Reference: no-protein control
Direction: higher = stronger binding
All sequences stand within: GGGAGUUCUACAGUCCGACGAUC … UGGAAUUCUCGGGUGCCAA
Residues (chain): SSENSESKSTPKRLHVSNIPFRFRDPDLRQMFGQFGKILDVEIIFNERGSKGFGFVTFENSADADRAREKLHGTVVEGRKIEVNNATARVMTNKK
Under “RBNS enrichment (R)”, `CAUUUUCAGGCCCUGUGGGGCUCCUGAGGUUCAGUAGCUGGGAUGUUCCCUCUUUCCUUCAAGUGCCUGUUGCAUAUUGAAAGGAAGGAGAAAUCCCAAAGCAGAUUCCU` is recorded as 0.2.
`UGCUUCCCUAAAUUACUUUUUUAGAGCCCAAACCCCAGGUUUAGGGUGAGGGUUUGUAAUACAAAGAAACACUUCCAUCACUUCUGCCCUUAACCCUUGCCUCUAUUACC` — result for “RBNS enrichment (R)”: 0.473.
Under “RBNS enrichment (R)”, `AUAAGGCUACUAAGCAUUAGGGCCAAUUAAAGAAUUUUAGUUUCCCUUUCUCAGACAAAUAGCUUUUAUACUUUUUUUUUUUUUUAAACUGACACAUCUGUUCUGUUGGU` is recorded as 0.737.
`GAGUGUGAAACAAGGCAAGUCUCAGACCAGCAAUAAAUUAUUCAGUUUGGCUAACCUUAUUUUGUGCUGUUAAUCUACCAAAGUGUUUUGUCUACCCCUUUAAUAAGUUG`: “RBNS enrichment (R)” 0.295.
Under “RBNS enrichment (R)”, `CAAUUAGGGAAAAAUGAGCGGCAAAGGAGCUUUCCCCUUCAGCUGCACUCUAAAGGGGAACAUUUUAAGGAAGUACUAGCAGCUUUGACUCUUCUAUGCUCCUGUUGGUU` is recorded as 0.349.
`CCUCUGACACUCCUCAGAUGAACUGUUCUCAUCGGAAGCUUGCUGUCUUUUUACAAGAUGAGCUUUUACUCUCUUCCAGGAAGUAGCUUUUUUUCUAGCUGAGAAUUAAU`: “RBNS enrichment (R)” 0.254.
`CAGCUGUGUGUUGUGCCCAAAAAUUUGGUUACCGGAAGGCAUUGCAAAGGAGCGUCUCUGGCAGUCAAGAUAAAAAAACAGUUUCUAUUGUAUUUUGUGGAACUGUAUCU`: “RBNS enrichment (R)” 0.348.
`AUGGUUUGACUUUUUAAUUCUAGUACUUACAACCUUUAAUCUUGGUAACUGUGGCCAAAUAUCUAUUGUUAUACAUAUCUCUGAAUGUGCUUGUAAGUGGUUAAAUAAUU` — result for “RBNS enrichment (R)”: 1.16.

Series 4
Target: Runt-related transcription factor 3, Runt domain (RUNX3, Homo sapiens, UniProt Q13761, residues 53-186)
UniProt Q13761, sequence (53-186, looked up): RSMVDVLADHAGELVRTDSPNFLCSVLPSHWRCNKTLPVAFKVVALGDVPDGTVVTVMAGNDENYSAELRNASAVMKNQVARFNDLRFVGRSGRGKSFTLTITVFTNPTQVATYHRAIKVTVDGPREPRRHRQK
Method: protein-binding microarray
Molecule type: hairpin DNA
Matrix: in vitro
Concentration: not given
Notes: whole hairpin DNA, median over replicate spots
Reference: not given
Direction: higher = stronger binding
With `CTCAGTTCTGTCGGCTGGACTCCTGTCCAGCCGACAGAACTGAGACACTC` the median fluorescence was 4430 a.u.
With `GAGGCCTGTTGTGGATGGCCTCCTGGCCATCCACAACAGGCCTCACACTC` the median fluorescence was 4190 a.u.
With `CTCAGTTCTGTGGGCTGGACTCCTGTCCAGCCCACAGAACTGAGACACTC` the median fluorescence was 4250 a.u.
With `GAGGCCCAATCGCAACAGCCTCCTGGCTGTTGCGATTGGGCCTCACACTC` the median fluorescence was 5010 a.u.
`GAGGCCCAACCGCAATAGCCTCCTGGCTATTGCGGTTGGGCCTCACACTC` has a median fluorescence of 9400 a.u.
`GAGGCCCAACCGCAGCAGCCTCCTGGCTGCTGCGGTTGGGCCTCACACTC (5mC at 30)` has a median fluorescence of 8120 a.u.
For `CTCAGTTCTGTGGGCTGGACTCCTGTCCAGCCCACAGAACTGAGACACTC (5mC at 32)`, the median fluorescence was 4280 a.u.
With `GAGGCCCAACCCCAACAGCCTCCTGGCTGTTGGGGTTGGGCCTCACACTC` the median fluorescence was 5020 a.u.
